Measurements pooled from the literature.
Compare with care: the assays were run in different laboratories. ± gives the spread as reported.

Compound	test	test system	setting	scale	quantity	result
C=C(c1cc(F)c(C(=O)O)c(F)c1)c1cc2c(cc1C)C(C)(C)CCC2(C)C	–	Sprague-Dawley rat, male, plasma	oral, 100 mg/kg, 6 h, sesame oil vehicle	–	LDL level	7 ± 1.5 mg/dL
Cn1c(=O)oc2ccc(-c3ccc(CC(C#N)NC(=O)C4CNCCCO4)c(F)c3)cc21 (centres unmarked)	item: blood bilirubin increased	human	15 mg single dose, fasted	–	subjects with TEAE	0%
COCC1CN(C2CCN(c3cc(OC)c(Nc4ncc(Br)c(Nc5ccc6c(c5P(C)(C)=O)OCCO6)n4)cc3C)CC2)C1	–	human patients	oral, 10 to 240 mg once daily	–	treatment-related Nausea, all grades	29.6%
Cc1[nH]nc2c1N=C(c1ccccc1Cl)c1cnc(N(CCO)CCO)cc1N2	–	human, feces	oral, 10 mg, 0 to 192 h	reference: dose	excretion in feces	2.72%
CCn1c(=O)n(CCO)c(=O)c2c1nc(/C=C/c1ccc(OC)c(OC)c1)n2C	–	healthy humans, plasma	oral, 40 mg, added: rifampin 600 mg/day	reference: with over without rifampin	geometric mean ratio AUClast	0.32
Cc1ccc(OCC(=O)O)cc1	–	male beagle dog, plasma	intravenous, 1.0 mg/kg of parent drug	reference: compound over parent drug	AUC(0-last) ratio	2.96
C[Si](C)(C[C@@H](CN)CC(=O)O)C1CC1	neuromuscular coordination	Wistar rat male	oral, 30 mg/kg, 1 h	–	performance time	180 s
O=C([O-])CN1CCN(CC(=O)[O-])CCN(CC(=O)NC[C@H]2CC[C@H](C(=O)N[C@H](Cc3cnc4ccccc4c3)C(=O)NCCCC[C@H](NC(=O)N[C@@H](CCC(=O)O)C(=O)O)C(=O)O)CC2)CCN(CC(=O)[O-])CC1.[64Cu+2]	radio-HPLC	PBS	24 h, 37 °C	–	radiochemical purity	> 95%
[2H]C([2H])([2H])NC(=O)c1ccc(N2C(=S)N(c3ccc(C#N)c(C(F)(F)F)c3)C(=O)C2(C)C)cc1F	–	male human, plasma	oral, 80 mg, single dose, fasted	–	Tmax	1.5 h
COc1cc2ncnc(Oc3ccc4c(C(N)=O)c(C)oc4c3)c2cc1OC	item: AUC0-inf	human, moderate renal impairment	oral	reference: normal renal function	decrease in exposure	~25%
NC12CNCCNCC(NCc3ccc(CNC(=O)CCCC(=O)NCc4ccc(-c5nncnn5)cc4)cc3)(CNCCNC1)CNCCNC2.[64Cu+2]	OLINDA dosimetry	spleen	24 h pretargeting interval, added: huA33-TCO pretargeting	–	mean absorbed dose	0.0146 rad/mCi
CC(C)[C@H](NC(=O)CNC(=O)[C@H](CCC(N)=O)NC(=O)[C@H](C)N)C(=O)O	–	human male, plasma	intravenous infusion, 30 mg/kg single, 15 min infusion, geometric mean	–	Cmax	3070 ng/mL
CC(=O)NC1CC=C(c2cc3c(Nc4cc5ncsc5cc4F)ncnc3s2)CC1 (racemic)	metabolic stability	human, liver microsomes	–	–	half-life	> 2 h
O=c1nc(NO)ccn1[C@@H]1O[C@H](CO)[C@@H](O)[C@H]1O	western blot, item: CYP2C11	normal rats, liver	oral, 80 mg/kg twice daily, 5 days	reference: untreated normal rats	protein level	0.7 fold
CC(=O)[CH](C(C)=O)[Pt-2]1([S+](C)C)[O]C(C)=CC(C)=[O+]1 (centres unmarked)	item: platinum	rat	iv, dose not given, 1 h	–	remaining in circulation	> 65%
C=C(c1ccc(C(=O)O)c(F)c1)c1cc2c(cc1C)C(C)(C)C=CC2(C)C	–	Sprague-Dawley rat, male, plasma	oral, 100 mg/kg, 2 h, sesame oil vehicle	–	LDL level	19 ± 2.6 mg/dL

Compound	test	test system	setting	scale	quantity	result
CNC(=O)N[C@]1(C)CCC[C@@]2(C)C3CC[C@@]4(C)C[C@]3(CCC21)CC4=O (single isomer, unassigned)	–	rat, plasma	oral, 2 mg/kg	–	CL/F	0.697 L/min
NCC(=O)N1CCC[C@H]1C(=O)N1C[C@H](O)C[C@H]1C(=O)O	potentiometric titration	–	40 °C, MA2 complex, added: Fe(III)	–	log beta	23.6
N=C(N)NCCC[C@@H]1NC(=O)[C@H](Cc2c[nH]c3ccccc23)NC(=O)[C@@H](CC2CCCCC2)NC(=O)[C@@H]2CCCN2C(=O)[C@@H](NC(=O)CCc2ccccc2)CCCNC1=O	two-compartment model	C57BL/6J mice, plasma	oral, 1 mg/kg	–	beta rate constant	0.03 min⁻¹
Oc1ccc2ccccc2c1/N=N/c1ccccc1	–	rat whole blood	16.0 µg/L, freeze-thaw cycle 2	–	freeze-thaw stability deviation	0.6%
CCNC(=O)c1noc(-c2cc(C(C)C)c(O)cc2O)c1NC(=O)CCN1CCOCC1	–	athymic nude mice, MV4-11 xenograft	intraperitoneal, 200 mg/kg, every 2 days for 3 weeks	–	body weight loss	2%
O=C(NCCCN(CCCCN(CCCNC(=O)c1cccc(=O)n1[O-])C(=O)c1cccc(=O)n1[O-])C(=O)c1cccc(=O)n1[O-])c1cccc(=O)n1[O-].[89Zr+4]	radio-TLC	PBS	1 d, pH 7.4, 37 °C, added: Co^2+ 10-fold excess	–	intact complex	98.2 ± 2.6%
C[Si]1(C[C@H](CN)CC(=O)O)CCCC1	neuromuscular coordination	Wistar rat male	oral, 300 mg/kg, 3 h	–	performance time	180 s
COc1cc(NC(C)=O)c2c(c1O)-c1c(OC)c(OC)cc3c1C(C2)N(C)CC3 (centres unmarked)	–	rat liver homogenate	50 µg/mL, 4 h, room temperature, short-term storage	–	remaining compound	92.4 ± 0.2%
COc1cc2c(cc1OC)CN(CCCCn1ccc3cc(OCC[18F])ccc31)C2	–	male ICR mice	intravenous, 30 min post-injection	–	heart uptake	2.36 ± 0.26 %ID/g
CCOC(=O)c1[nH]c(C)c(/C=C/C2=[N+]3C(=C(c4cc(OC)cc(OC)c4)c4c(C)c(I)c(/C=C/c5c(C)[nH]c(C(=O)OCC)c5C)n4[B-]3(F)F)C(C)=C2I)c1C	–	THF	–	–	absorption maximum	685 nm
CC(C)[C@H](NC(=O)CNC(=O)[C@H](CCC(N)=O)NC(=O)[C@H](C)N)C(=O)O	–	healthy volunteers, LPS endotoxaemia, plasma	intravenous, 90 mg/kg/h, 2 h infusion, geometric mean, added: LPS 2 ng/kg	–	clearance	150 mL/min/kg
CCCC[C@@H]1NC(=O)[C@@H](NC(=O)[C@H](CCC(=O)O)NC(=O)CNC(=O)CN2CCN(CC(=O)O)CCN(CC(=O)O)CCN(CC(=O)O)CC2)CCCCNC(=O)C[C@@H](C(N)=O)NC(=O)[C@H](C(C)C)NC(=O)[C@@H]2CCCN2C(=O)[C@H](CCCNC(=N)N)NC(=O)CNC(=O)[C@H](Cc2c[nH]c3ccccc23)NC(=O)[C@H](CCCNC(=N)N)NC(=O)[C@@H](Cc2ccccc2)NC(=O)[C@H](Cc2c[nH]cn2)NC(=O)[C@H](CCC(=O)O)NC1=O [gallium-67 labelled]	–	C57 mice with B16/F1 melanoma	intravenous, 0.037 MBq/mouse, 24 h	reference: tumour over lung	tumour to lung ratio	50.2
COc1ccc2cc(-c3ccc(-c4ccc(C)cn4)nc3)oc2c1	–	organic solvents	added: quinine bisulfate reference	–	fluorescence quantum yield	≥ 0.69
CCCC(CCC)NC(=O)c1ccc(OC2OC(C(=O)O)C(O)C(O)C2O)c(O)c1 (centres unmarked)	–	male Sprague-Dawley rats, plasma	oral, 200 mg/kg of parent drug	reference: 200 over 20 mg/kg dose	AUC(0-last) ratio	3.2
C=CCc1ccc(O)c(-c2cc(CC=C)ccc2OCCCCCCCCCC[P+](c2ccccc2)(c2ccccc2)c2ccccc2)c1	–	C57BL/6 mouse, non-tumour-bearing	dose not given, day 31	–	serum ALT	58.7 ± 25.4 IU/L
NC[C@@H](C(=O)Nc1ccc(-c2cn[nH]c2)cc1)c1ccccc1	OECD 405 eye irritation	New Zealand White rabbit, eye	topical, 0.1%, 32 h (day 2)	direction not given	total eye irritation score	0
